Results pooled from the literature.
Compare with care: the assays were run in different laboratories. “And” joins repeats or separate records; there may be more than shown. Numbers after ± are the reported error.

The aspartate aminotransferase of CCCCCOc1ccc(-c2ccc(-c3ccc(C(=O)N[C@H]4C[C@@H](O)[C@@H](OCC[N+](C)(C)C)NC(=O)[C@@H]5[C@@H](O)[C@@H](C)CN5C(=O)[C@H]([C@@H](C)O)NC(=O)[C@H]([C@H](O)[C@@H](O)c5ccc(O)cc5)NC(=O)[C@@H]5C[C@@H](O)CN5C(=O)[C@H]([C@@H](C)O)NC4=O)cc3)cc2)cc1 is reported as 26 U/L (adult ICU patients, mITT, serum; dose not given, EOT).
The Ctrough ratio of N[C@@H](Cc1ccc(O)c(O)c1)C(=O)O is reported as 3.17 (human, plasma; oral, dose not given, carbidopa/levodopa every 4 h, added: opicapone; relative to: after over before opicapone).
C=CCNc1c(O)cc2c(O)c1C[C@@H](C)C[C@H](OC)[C@H](O)[C@@H](C)/C=C(\C)[C@H](OC(N)=O)[C@@H](OC)/C=C\C=C(/C)C(=O)N2: “patients with ALP increase” 33% (unresectable or metastatic sarcoma; intravenous, 300 mg/m^2, grade 3-4 lab change).
Under “respiratory failure adverse events”, Nc1nc2cc(-c3ccc4ncc(C(=O)N5CCOCC5)n4c3)ccc2o1 is recorded as 4% (human, advanced solid tumours; 100–300 mg once daily).
CC(C)C[C@H](NC(=O)[C@H](CCCCN)NC(=O)OCC1c2ccccc2-c2ccccc21)C(=O)N[C@H](C(=O)N[C@@H](Cc1ccccc1)C(=O)N[C@@H](Cc1ccccc1)C(=O)N[C@@H](CCCCN)C(=O)NCC(=O)N[C@@H](Cc1ccccc1)C(=O)N[C@@H](C)C(=O)N[C@@H](Cc1c[nH]c2ccccc12)C(=O)N[C@@H](CC(N)=O)C(=O)N[C@H](C(=O)N[C@H]1CSSC[C@@H](C(=O)N[C@@H](Cc2c[nH]cn2)C(=O)N[C@@H](CCCNC(=N)N)C(=O)N[C@@H](CCCNC(=N)N)C(=O)N[C@@H](C)C(=O)N[C@@H](CC(N)=O)C(N)=O)NC(=O)[C@H](C(C)C)NC(=O)[C@H](CCCNC(=N)N)NC(=O)[C@H](C(C)C)NC(=O)CNC(=O)[C@H](CC(N)=O)NC(=O)[C@H](CCCNC(=N)N)NC(=O)[C@H](Cc2ccc(O)cc2)NC(=O)[C@H](C(C)C)NC1=O)C(C)C)C(C)C has a neutrophils of 18.7 ± 1% (ICR mice, blood; intraductal mammary, 5 mg/kg, day 5).
CN1CCN(S(=O)(=O)c2cc([N+](=O)[O-])ccc2N(CCOS(C)(=O)=O)CCOS(C)(=O)=O)CC1 — result for “blood urea nitrogen”: 11 mmol/L (naive NOD/SCID mice, pooled blood; intraperitoneal, 18.8 mg/kg, week 4).
Cn1cncc1-c1c(F)cncc1NC(=O)c1c(N)nn2cc(F)cnc12 — result for “grade ≥3 neutrophil decrease incidence”: 25% (human patients; oral, 270 mg once daily).
With Oc1ccc(Cl)c(-c2ccc(Cl)cc2Cl)c1Cl the enantiomeric fraction was 0.48 (enantioselective gas chromatography; racemized sample; column temperature 140 °C).
For C=CC(=O)Nc1cc(Nc2nccc(Nc3cc(Cl)c(F)cc3C(C)(C)O)n2)c(OC)cc1N1CC[C@@H](N(C)C)C1, “patients with paronychia” read 29.4% (human patients; oral, 300 mg, treatment-emergent adverse events).
C[C@@H](NC(=O)N1C(=O)[C@H](Cc2ccnc(N)c2)[C@H]1C(=O)O)C1CCCCC1: “incidence of urine occult blood positive” 0% (healthy adult Chinese volunteers; continuous intravenous infusion, 2.25 mg/kg/h, 5-day infusion, CTCAE 5.0 grading).
O=C1Nc2cc3[nH]nc(-c4ccncc4)c3cc2CN1Cc1ccccc1: “patients with grade ≥3 TEAE” 6% (item: Lymphopenia; patients with advanced solid tumours; intravenous, dose not given, schedules 1 and 2).
For CC(C)c1nc(N(C)S(C)(=O)=O)nc(-c2ccc(F)cc2)c1/C=C/[C@@H](O)C[C@@H](O)CC(=O)O, “incidence of nervous system disorders” read 0% (healthy human subjects; oral, dose not given, study CL-0537 safety set).
With CC(C)[C@H](O)C(=O)N[C@H]1Cc2ccc3c(c2)[C@]2(C4=C(c5nc(CO)co5)N=C(O4)[C@H](C(C)(C)C)NC1=O)c1cc(F)ccc1N[C@@H]2O3 the AUC(0-t) was 34500 ng·h/mL (NSG mice, female, MDA-MB-231-BrM2 xenograft, mammary fat pad; intravenous, 10 mg/kg, single MTD dose, added: paclitaxel 40 mg/kg).
For O=S(=O)(Nc1ccccc1)c1ccc(NC(=S)Nc2ccccc2)cc1, “mean corpuscular volume” read 49 fL (mouse, female, blood; oral, 5 mg/kg daily, 14 days).
Under “treatment-related adverse events”, CCCCCCCCCCCCCCCC(=O)N[C@@H](CCC(=O)NCCCC[C@H](NC(=O)[C@H](CC(=O)O)NC(=O)[C@H](CO)NC(=O)[C@@H](NC(=O)[C@H](Cc1ccccc1)NC(=O)[C@@H](NC(=O)CNC(=O)[C@H](CCC(N)=O)NC(=O)[C@H](CO)NC(=O)[C@@H](N)Cc1c[nH]cn1)[C@@H](C)O)[C@@H](C)O)C(=O)N[C@@H](CO)C(=O)N[C@@H](CCC(=O)O)C(=O)N[C@@H](Cc1ccc(O)cc1)C(=O)N[C@@H](CC(C)C)C(=O)N[C@@H](CC(=O)O)C(=O)N[C@@H](CO)C(=O)N[C@@H](CCC(=O)O)C(=O)N[C@@H](CCCNC(=N)N)C(=O)N[C@@H](C)C(=O)N[C@@H](CCCNC(=N)N)C(=O)N[C@@H](CC(=O)O)C(=O)N[C@@H](Cc1ccccc1)C(=O)N[C@H](C(=O)N[C@@H](C)C(=O)N[C@@H](Cc1c[nH]c2ccccc12)C(=O)N[C@@H](CC(C)C)C(=O)N[C@@H](CCC(=O)O)C(=O)N[C@@H](C)C(=O)NCC(=O)NCC(=O)O)C(C)C)C(=O)O is recorded as 33.3% (item: Headache; humans CrCl below 20 mL/min; subcutaneous, 100 µg single dose).
For CCC(C(=O)Nc1sc(C(N)=O)c(C)c1C(=O)OC)c1ccc(F)cc1 (centres unmarked), the total recovery was 9.1% (human, cadaver skin; topical, dose not given, 24 h).
For CCc1ccc(CC/C=C/c2ccc3c(c2)C(=O)CC3)cc1, the Eosinophil percentage was 0.5% (Sprague-Dawley rat, male; oral, 30 mg/kg/day, 14 days).
For Cn1ncc(-c2nc(N[C@H]3CC[C@H](N)CC3)ncc2Cl)c1CC1CC1, “acute respiratory failure incidence” read 10% (phase I dose escalation; human patients; dose not given, grade 3 or higher TEAE).
N=C(N)NCCC[C@@H](NC(=O)[C@@H](N)Cc1ccccc1)C(=O)N[C@@H](Cc1ccccc1)C(=O)N[C@@H](CCCCN)C(N)=O: “median amount excreted in urine” 8.37e+06 ng (LC-MS; human; 25 mg, 5.833 h).
For O=C(Nc1ccccc1)C1CCN(C(=O)Oc2cccnc2)CC1, “subjects with chest discomfort” read 0% (adverse event reporting; healthy women; oral, 60 mg, 7 days).
For CN(C(=O)n1cnc(-c2ccc[n+]([O-])c2)c1)C1CCCCC1, the concentration was 334 ± 44.7 ng/g (Wistar rat, medulla oblongata; oral, 10 mg/kg, 1 h, single dose).
NCCCC[C@@H]1NC(=O)[C@@H](Cc2c[nH]c3ccccc23)NC(=O)[C@H](c2ccccc2)NC(=O)[C@@H]2C[C@@H](OC(=O)NCCN)CN2C(=O)[C@H](Cc2ccccc2)NC(=O)[C@H](Cc2ccc(OCc3ccccc3)cc2)NC1=O: “placebo-corrected QTcF change” 5.5 ms (healthy volunteers, female; 600 µg twice daily, 1.0 h, post hoc).
For COc1cc2c(Oc3ccc4[nH]c(C)cc4c3F)ccnc2cc1OCC1(N)CC1, “grade 3 Cholesterol elevation” read 0% (paediatric recurrent refractory sarcoma; 12 mg).
C[C@@H]1C[C@@H]([C@H](O)CC2CC(=O)NC(=O)C2)C(=O)[C@@H](C)C1 — result for ATP level: “decreased” (bovine liver slices; 5 mg/mL, 6 h).
For COc1ncccc1-c1cnn2ccc(N3CCN(C(=O)OC(C)C)CC3)nc12, “free drug concentration” read 55 nM (rat, CCI mechanical allodynia model, plasma; oral, 10 mg/kg, 240 min).
CC(C)[C@H](C(=O)O[C@H](C#N)c1cccc(Oc2ccccc2)c1)c1ccc(Cl)cc1 — result for “enzyme contribution to clearance”: 3.04% (item: CYP2C19; human, age 5 years).
C[C@H](O)c1cnc(NS(=O)(=O)c2ccc(Cl)c(Cl)c2)nc1: “scaled intrinsic clearance” less than 20 mL/min/kg (hepatocytes, HSD17B13 knockout with AAV control, C57BL/6J mouse, male; 1 µM).
CO[C@H]1C[C@@H]2CC[C@@H](C)[C@@](O)(O2)C(=O)C(=O)N2CCCC[C@H]2C(=O)O[C@H]([C@H](C)C[C@@H]2CC[C@@H](OC(=O)NCCOCCOCCOCCOCCOCCOCCOCCOCCC(=O)N3CCc4cc(Cn5nc(-c6ccc7oc(N)nc7c6)c6c(N)ncnc65)ccc4C3)[C@H](OC)C2)C[C@@H](O)[C@H](C)/C=C(\C)[C@@H](O)[C@@H](OC)C(=O)[C@H](C)C[C@H](C)/C=C/C=C/C=C/1C — result for “any SAE incidence”: 16.7% (phase 1 dose escalation; advanced solid tumour patients; intravenous, 12 mg weekly, grade ≥3).
For C[C@]1(CO)Cc2ncn(-c3ccc(C#N)c(Cl)c3)c2C(=O)O1, “subjects with drug-related headache” read 0% (human; 5 mg single dose).
CC[C@H](C)[C@@H]1NC(=O)[C@@H]2CSSC[C@H](NC(=O)[C@H](CCCNC(=N)N)NC(=O)[C@@H]3CSSC[C@H](NC1=O)C(=O)N[C@@H]([C@@H](C)O)C(=O)N[C@@H](CCCNC(=N)N)C(=O)NCC(=O)N[C@@H](Cc1ccccc1)C(=O)N3)C(=O)N[C@@H](CC(C)C)C(=O)N[C@H]1CSSC[C@H](NC(=O)[C@H](C(C)C)NC(=O)CNC(=O)[C@H](CCCNC(=N)N)NC(=O)[C@H](CCCNC(=N)N)NC1=O)C(=O)N[C@@H](CCCNC(=N)N)C(=O)N2: “lung thrombosis score” 1 to 2 (cynomolgus monkey, female, lung; 10 mg/kg, histopathology, multifocal; direction not given).
C[C@]12CC[C@H](n3ccnc3)CC1=CC[C@@H]1[C@@H]2CC[C@]2(C)C(n3cnc4ccccc43)=CC[C@@H]12.Cl.Cl gave an oral bioavailability of 176% (CD-1 mice, male, plasma; oral, 10 mg/kg; relative to: intravenous 1 mg/kg).
COc1cccc(Oc2ccccc2NC(=O)CNC(=O)c2cccc3ccccc23)c1: “blood urea nitrogen” 37 mg/dL and 36 mg/dL and 30 mg/dL (esterase-deficient SCID mice, male; oral, 15 mg/kg/day, 14 days, toxicity study).
Cn1cc(-c2nc(N[C@@H]3CCCC[C@@H]3N)c(F)c3c2C(=O)NC3)cn1: “hemorrhagic adverse events” 17% (item: Rectal haemorrhage; patients with relapsed or refractory AML; oral, 80 mg twice daily).
Under “serum enzyme activity”, O=C(O)CCCOc1ccc(F)cc1-c1cc(-c2ccccc2C(F)(F)F)n(-c2ccccc2)n1 is recorded as 79.9 ± 5.5 U/L (item: AST; Crl:CD(SD) rats, male, serum; iv, 25 µg/kg, 14 days).
With COc1cc2c(cc1OC)CN(CCc1ccc(NC(=O)c3cccc4c(=O)c5cccc(OC)c5[nH]c34)cc1)CC2 the AUC(0-inf) was 498 ng·h/mL (CD-1 mouse, male, plasma; intraperitoneal, 0.3 mg/kg).
